Measurements gathered from unrelated publications.
Numbered parts are unrelated; each lists some results of a single study. Positions count from the first letter of the parent shown.

Sample 1 — technique: DHFR PCA, deep sequencing; sample: yeast; together with: (+)-ABA 0.39 µM; relative to: wild-type fitted maximum; direction: higher = stronger binding
Target: ABI1, truncated, D143A, DHFR fusion (Arabidopsis thaliana)
Notes: methotrexate growth selection, single substitutions
Parent: PYL1, truncated, DHFR fusion (Arabidopsis thaliana); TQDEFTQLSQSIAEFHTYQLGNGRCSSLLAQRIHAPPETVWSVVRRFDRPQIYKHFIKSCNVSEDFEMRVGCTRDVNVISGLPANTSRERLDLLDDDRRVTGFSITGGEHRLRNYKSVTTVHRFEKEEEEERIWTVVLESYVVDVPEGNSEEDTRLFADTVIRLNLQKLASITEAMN; partner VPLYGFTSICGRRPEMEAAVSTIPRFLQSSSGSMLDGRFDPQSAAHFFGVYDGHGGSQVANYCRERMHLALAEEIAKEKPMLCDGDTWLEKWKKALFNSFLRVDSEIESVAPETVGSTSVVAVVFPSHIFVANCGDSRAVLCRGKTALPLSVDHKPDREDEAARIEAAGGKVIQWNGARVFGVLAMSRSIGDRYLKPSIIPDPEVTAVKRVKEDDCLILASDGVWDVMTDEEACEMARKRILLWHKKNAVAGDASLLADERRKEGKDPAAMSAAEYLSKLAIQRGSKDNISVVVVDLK
Under “relative binding score”, `Q7C` is recorded as 37.1%.
Under “relative binding score”, `T101G` is recorded as -1.8%.
`A13N`: “relative binding score” 41.6%.
`Q2S` — result for “relative binding score”: 43.4%.
`D92I` — result for “relative binding score”: -5.53%.
`K58S` — result for “relative binding score”: 20.9%.
`F103C` — result for “relative binding score”: -8.63%.
`F66N`: “relative binding score” 4.35%.
Under “relative binding score”, `Q19E` is recorded as 58.3%.
`E151A` — result for “relative binding score”: 62%.
Under “relative binding score”, `T1Q` is recorded as 36%.
Under “relative binding score”, `N165S` is recorded as 8.37%.
For `D3Q`, “relative binding score” read 48.4%.

Sample 2 — target: CCND1, cyclin fold, Cln2 fusion (human); technique: yeast growth competition, sequencing; sample: yeast; notes: weak parent motif; relative to: not given; direction: higher = stronger binding
Parent: CDC25A docking peptide (human); PPHRRRLLFACSP; partner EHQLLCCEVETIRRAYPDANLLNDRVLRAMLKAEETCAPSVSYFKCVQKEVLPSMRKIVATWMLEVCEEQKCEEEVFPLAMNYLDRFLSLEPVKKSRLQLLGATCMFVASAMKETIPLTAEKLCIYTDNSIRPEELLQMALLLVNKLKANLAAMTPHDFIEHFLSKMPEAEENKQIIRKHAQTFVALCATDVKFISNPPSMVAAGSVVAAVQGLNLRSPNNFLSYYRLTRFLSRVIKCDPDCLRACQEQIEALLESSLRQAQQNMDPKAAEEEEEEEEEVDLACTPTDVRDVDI
`PPHRRRLLFKCSP [A10K]` — result for “normalised enrichment score”: 0.386.
`PPHRRDLLFACSP [R6D]` — result for “normalised enrichment score”: -0.0385.
For `PPHRRRLLFQCSP [A10Q]`, “normalised enrichment score” read 0.324.
`PPSRRRLLFACSP [H3S]`: “normalised enrichment score” 0.447.
`PPHRRRLLFPCSP [A10P]` — result for “normalised enrichment score”: -0.325.
Under “normalised enrichment score”, `PPHRIRLLFACSP [R5I]` is recorded as 0.622.
For `PPHVRRLLFACSP [R4V]`, “normalised enrichment score” read 0.512.
For `PPHRRRKLFACSP [L7K]`, “normalised enrichment score” read 0.255.
`PPHRRRLRFACSP [L8R]` — result for “normalised enrichment score”: -0.175.
Under “normalised enrichment score”, `PPHRRRLLFAASP [C11A]` is recorded as 0.488.
`PPHFRRLLFACSP [R4F]` — result for “normalised enrichment score”: 0.49.
For `PPHRRRLLFACST [P13T]`, “normalised enrichment score” read 0.469.
`PPHRRRLLFACSS [P13S]` — result for “normalised enrichment score”: 0.164.
For `PWHRRRLLFACSP [P2W]`, “normalised enrichment score” read 0.253.
`PPHRRRMLFACSP [L7M]` — result for “normalised enrichment score”: 0.0774.
Under “normalised enrichment score”, `PPHRRRLLFACSE [P13E]` is recorded as -0.145.
`PPHRRRLLAACSP [F9A]` — result for “normalised enrichment score”: 0.143.
Under “normalised enrichment score”, `PPHRRRLLFECSP [A10E]` is recorded as -0.0933.

Sample 3 — technique: RNA Bind-n-Seq; molecule type: RNA; sample: in vitro; tested at: 365 nM; relative to: no-protein control; direction: higher = stronger binding
Target: RNA binding protein fox-1 homolog 2, RRM domain, GST-SBP tag (RBFOX2, Homo sapiens, UniProt O43251-10, residues 100-194)
Notes: natural RNA segment, single round, ends assumed
Residues (chain): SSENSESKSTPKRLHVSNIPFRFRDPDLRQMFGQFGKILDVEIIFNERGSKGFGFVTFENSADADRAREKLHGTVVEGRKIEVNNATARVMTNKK
Under “RBNS enrichment (R)”, `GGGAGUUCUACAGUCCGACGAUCAGAAAUGUGGGUUGGUUUGGGAAUAGAAACUUGUUCCUGCAUGAGAUGGCUUUGGGUGUCUGGUACCACUCCUUCCCUUCCCCCUACCUGGCCGAUUGGUGCUCCUUCUAUGGAAUUCUCGGGUGCCAA` is recorded as 2.33.
`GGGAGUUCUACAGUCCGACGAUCGCUUUACUAUGGAGCCUGCAUAUGAAGCCACCUCUGGCUUCUACAGAAGGAGGCCCUGGCUGCUCCAGCUUGGGUGGAGCCUACUGAAAUGUGGAAACUGUGUAUCUUAUUGGAAUUCUCGGGUGCCAA`: “RBNS enrichment (R)” 0.335.
Under “RBNS enrichment (R)”, `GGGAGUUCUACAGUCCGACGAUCUUAUACAUACCUGGGGCAUCUUCUCAACUAGUGCGCAGGAGCACCAGGUAGAGGCAGCUGUGUGUGGAGAUGCAGUGUGUUCCUAGAGAAGGUGAACAACCUGAAAGCGCUGGAAUUCUCGGGUGCCAA` is recorded as 0.527.
`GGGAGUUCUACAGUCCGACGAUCAGAUUUUAUUUUUAAUUUAUCUCUGUGACCUGCCAGGGAGAGGAGAGAAAGAAAUGCUGUGAGCACAUGACAAAAUAAAAUCAAAUAAAAUGGAUGAUUCAGCUUAAGUGUGGAAUUCUCGGGUGCCAA` — result for “RBNS enrichment (R)”: 0.436.
For `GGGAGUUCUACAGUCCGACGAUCGACCUGCUCUAGCGAGAGCUGAGCAUGUGUCCUCCACUAGAUGAGGCUGAGUCCAGCUGUUCUUUAAGAACAGCAGUUUCAGCUCUGACCAUUCUGAUUCCAGUGACACUUGGAAUUCUCGGGUGCCAA`, “RBNS enrichment (R)” read 0.211.
`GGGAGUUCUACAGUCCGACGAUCUGUGUUUCUUGGAUAGGGGCCAGUGCAGUGCCAUCCUACAGGUGGCUGGAGCAGCUGCUUUGCAACCUGAUCACCUUGAGUUCUGAGCAGGGACUAGGCUUGCAGGUGAGUGGAAUUCUCGGGUGCCAA`: “RBNS enrichment (R)” 0.776.
`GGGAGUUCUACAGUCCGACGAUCUGCCAAGAGAUGUGAUAUAUAAGUGUAUAUAUUGUGCUGUGUUUGGGACCCUCCUCAUACAGCUCGUGCGGAUCUGCAGUGUGUUCUGACUCUAAUGUGACUGUAUAUACUGGAAUUCUCGGGUGCCAA`: “RBNS enrichment (R)” 0.483.
`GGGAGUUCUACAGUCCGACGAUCGUGUUUUUAUUGCUCGCCCAGACACCAUGUGCAAUAAGAUUGGUGUUCGUUUCCAUCAUGUCUGUAUACUCCUGUCACCUAGAACGUGCAUCCUUGUAAUACCUGAUUGAUGGAAUUCUCGGGUGCCAA` — result for “RBNS enrichment (R)”: 0.601.

Sample 4 — technique: RNA Bind-n-Seq; molecule type: RNA; sample: in vitro; tested at: not given; relative to: input RNA pool; direction: higher = stronger binding
Target: RING finger protein unkempt homolog, zinc fingers 1-6, GST-SBP tag (UNK, Homo sapiens, UniProt Q9C0B0, residues 30-357)
Notes: RNA with constant flanks, human and mouse sites, ends assumed
Residues (chain): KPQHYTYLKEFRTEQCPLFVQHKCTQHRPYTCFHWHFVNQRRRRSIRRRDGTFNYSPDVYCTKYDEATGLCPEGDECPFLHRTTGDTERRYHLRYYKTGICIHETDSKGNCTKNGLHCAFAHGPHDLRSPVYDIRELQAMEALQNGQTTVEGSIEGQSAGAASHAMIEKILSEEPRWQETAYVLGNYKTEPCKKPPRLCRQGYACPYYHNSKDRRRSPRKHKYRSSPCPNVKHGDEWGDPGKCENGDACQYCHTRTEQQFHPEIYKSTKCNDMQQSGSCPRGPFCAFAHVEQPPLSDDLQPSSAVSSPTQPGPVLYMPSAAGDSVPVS
With `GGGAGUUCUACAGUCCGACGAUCGCCUUUUUCCUUGUUUUCUUCUUAGUGACAGCAUUUUUUGGAACUGGAAAUAUAGCUUCUAUUAACAGCUUUGAUCUUGCCUCUGUCUAUUGCUUUCUGACUGUGUUCAGUCCUUUUAUGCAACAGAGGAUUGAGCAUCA` the bound/input enrichment was 1.05 ratio.
`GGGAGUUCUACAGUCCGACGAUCAGCAGUUCUGCUCCACCACUAGAACGACGUAGUUUCAUUGGAAAUUCAGAUAUUCAGUCUUUGGAUAACUACAGUACUGCUUCAUCUCAUUCUGGUGGUCCACCUCAGCCUUCUGCCUUUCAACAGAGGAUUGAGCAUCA` gave a bound/input enrichment of 0.0875 ratio.
With `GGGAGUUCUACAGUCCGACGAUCAAGGCACGCUUGACCUGUCCGUGCUGUAACAUGCGUAAAAAGGAUGCUGUUCUUACUAAGUGUUUUCAUGUCUUCUGCUUUGAGUGUGUGAAGACACGCUAUGACACCCGCCAGCGCAAACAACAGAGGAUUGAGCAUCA` the bound/input enrichment was 0.0616 ratio.
`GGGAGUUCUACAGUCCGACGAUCUGGUGUUGCUGAACUGCUUUUUAACACAAUCCAGGCAGCCGACAUUGAUACCAGAUCUGAAUUUUACAAGCACAUUGUGCUUUCUGGAGGUUCUACCAUGUAUCCUGGCCUGCCAUCGAGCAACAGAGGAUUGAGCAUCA` has a bound/input enrichment of 0.0934 ratio.
With `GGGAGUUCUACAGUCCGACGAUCUGUGUCCCUGCCAUGAUCAGGUGUCUAUCAGAUGACGUAAAAACCAAGUUGCGUUCCGGUUUAGCCAUAAGCUCCUUGGGCCAGUGUGUUGAAGAACUUACCCUUAACAGUAUUGAUGCUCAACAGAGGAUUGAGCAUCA` the bound/input enrichment was 0.368 ratio.
`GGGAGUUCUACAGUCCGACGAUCCAUCAUUGAAGAGUCCUUAAAAACUUAACAGACUUGUGUAACAGCACAAGUAUGUUCCUAAAGUGCUGUAUUUACUGAAUCUGUUUCCUGGAAAAGUAAUUAAUAAAGCUUAUUCUCAGACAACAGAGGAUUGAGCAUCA` has a bound/input enrichment of 0.114 ratio.
For `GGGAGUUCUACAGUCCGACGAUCUGGUGCCCAUGGCGGCCGCCCCGGAGCCCCACGAGACGGAGAAAAAGCCCUUCAAGCUCCUAGGUAUUUUAGAUGUUGAGAACACUCCAUGUGCUCGAGAAUCUAUACUCUAUGGCUCAUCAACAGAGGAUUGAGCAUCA`, the bound/input enrichment was 0.19 ratio.
For `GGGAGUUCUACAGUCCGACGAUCCAUAAGCGUUGUAUUGUAAUUCUUAGAGAGAUUCCUGAAACAACACCAAUAGAGGAAGUGAAAGGUUUGUUCAAAAGUGAAAACUGCCCCAAAGUGAUAAGCUGUGAGUUUGCACACAAUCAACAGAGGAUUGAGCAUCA`, the bound/input enrichment was 0.224 ratio.

Some of these lines once more (sample 1):
`K58S` — result for “relative binding score”: 20.9%.
`E151A` — result for “relative binding score”: 62%.
Under “relative binding score”, `Q7C` is recorded as 37.1%.
